Results collected from several papers.
A part holds a random share of what one study measured.

Block 1
Target: Protein C-ets-1 (ETS1, Homo sapiens, UniProt P14921, residues 1-441, Y397A, full length assumed)
Method: protein-binding microarray
Form: double-stranded DNA, one strand shown
Sample: in vitro
Tested at: not given
Notes: k-mer, scored over probes, only values ≥0.25
Direction: higher = stronger binding
Residues (chain): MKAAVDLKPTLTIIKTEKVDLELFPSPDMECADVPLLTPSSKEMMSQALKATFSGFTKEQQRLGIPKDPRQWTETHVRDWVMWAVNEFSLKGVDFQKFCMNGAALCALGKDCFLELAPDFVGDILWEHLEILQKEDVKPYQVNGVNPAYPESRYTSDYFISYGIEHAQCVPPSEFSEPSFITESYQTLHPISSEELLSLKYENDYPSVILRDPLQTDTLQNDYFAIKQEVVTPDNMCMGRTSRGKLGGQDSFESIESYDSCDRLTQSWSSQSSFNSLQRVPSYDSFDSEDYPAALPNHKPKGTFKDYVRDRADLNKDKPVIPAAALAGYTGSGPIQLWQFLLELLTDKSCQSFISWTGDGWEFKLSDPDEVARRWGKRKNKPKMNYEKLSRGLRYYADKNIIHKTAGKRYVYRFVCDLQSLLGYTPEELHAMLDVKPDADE
Strand | E-score
ACGGAAGC | 0.265
GTCACTCA | 0.276
CGACGTGC | 0.256
CCATATCC | 0.262
GGCAAACA | 0.303
GTACTACA | 0.263
TGTCGGAA | 0.371
GCGCACAA | 0.28
ACCGCAAA | 0.321
CGTACATA | 0.254
TGCCGGCA | 0.342
ATTTGTAC | 0.261
GTGGCAAA | 0.364
ACAATGTG | 0.293
AGGAAATG | 0.303
GCTGACAA | 0.282
TACTGACA | 0.284
GACTGACA | 0.287
CTTCCGTC | 0.277
GGCAAATA | 0.375
GACAACTC | 0.294
GTTTGACA | 0.329
CTGTTTGC | 0.324
CATTTGGC | 0.253
ACATCCGG | 0.481

Block 2
Target: Sal-like protein 4, full length isoform A (SALL4, Homo sapiens, UniProt Q9UJQ4, residues 1-1053)
Chain of UniProt Q9UJQ4 (whole entry, looked up): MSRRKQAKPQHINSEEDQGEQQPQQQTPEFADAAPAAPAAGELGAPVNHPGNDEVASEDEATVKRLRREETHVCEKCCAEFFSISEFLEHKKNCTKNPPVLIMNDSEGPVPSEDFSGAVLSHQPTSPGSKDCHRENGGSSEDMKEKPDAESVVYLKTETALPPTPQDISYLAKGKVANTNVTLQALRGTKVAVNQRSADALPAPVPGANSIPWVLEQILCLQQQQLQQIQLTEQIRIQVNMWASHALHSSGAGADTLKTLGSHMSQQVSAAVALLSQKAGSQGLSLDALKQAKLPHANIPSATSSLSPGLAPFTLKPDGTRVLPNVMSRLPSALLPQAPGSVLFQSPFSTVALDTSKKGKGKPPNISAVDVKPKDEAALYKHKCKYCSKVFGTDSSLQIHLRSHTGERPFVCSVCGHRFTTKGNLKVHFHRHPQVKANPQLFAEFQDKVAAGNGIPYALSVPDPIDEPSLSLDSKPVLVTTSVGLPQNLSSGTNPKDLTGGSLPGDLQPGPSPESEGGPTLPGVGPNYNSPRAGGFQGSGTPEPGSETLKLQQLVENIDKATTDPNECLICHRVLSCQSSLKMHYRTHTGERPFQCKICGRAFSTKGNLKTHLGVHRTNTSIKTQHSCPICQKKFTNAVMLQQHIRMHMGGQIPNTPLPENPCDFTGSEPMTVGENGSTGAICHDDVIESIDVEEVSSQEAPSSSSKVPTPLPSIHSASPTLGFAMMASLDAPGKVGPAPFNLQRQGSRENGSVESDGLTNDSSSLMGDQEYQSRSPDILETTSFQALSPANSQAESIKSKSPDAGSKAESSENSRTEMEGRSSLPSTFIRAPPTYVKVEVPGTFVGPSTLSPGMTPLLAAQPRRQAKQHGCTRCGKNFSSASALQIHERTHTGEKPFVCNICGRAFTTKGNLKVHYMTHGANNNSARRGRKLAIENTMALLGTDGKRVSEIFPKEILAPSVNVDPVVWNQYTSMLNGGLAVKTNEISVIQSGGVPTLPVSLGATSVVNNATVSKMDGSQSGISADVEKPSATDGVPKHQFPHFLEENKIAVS
Method: universal PBM
Form: double-stranded DNA, one strand shown
Sample: in vitro
Tested at: 600 nM
Notes: 8-mer, flanks averaged, mean of replicates
Direction: higher = stronger binding
Strand | E-score
GCGTCCCC | -0.32
CTGCACTA | 0.0184
GTCACAAA | 0.0612
ACGTCGAA | -0.0887
GGAGCATA | -0.0219
AAACGACA | 0.0705
CTTGTCGA | 0.0853
ACAGTTTA | 0.207
CGCCGTGA | -0.14
CAAGCTCC | -0.228
TTCGCGAA | 0.142
ACCTGCAG | -0.199
CCTAAACA | 0.0388
CAATAGAA | 0.114
AACCTCTG | 0.0282
AAAGACCG | -0.0283
ATACAAAT | 0.349
CCTTTGCA | 0.0092
CATGTCTC | 0.116
CAGAAGAG | -0.08
TCGGCACA | -0.108
AGATGGAG | -0.0608
ACAGGTAT | 0.0676
AGTCATGG | -0.00619
CGTCCCCA | -0.228

Block 3
Target: Fragile X messenger ribonucleoprotein 1, C-terminal low-complexity region (Fmr1, Mus musculus, UniProt P35922)
Method: RNA Bind-n-Seq
Form: RNA
Sample: in vitro
Tested at: 200 nM
Notes: whole 134-nt RNA, ends assumed
With: 150 mM LiCl
Baseline: input library
Direction: higher = stronger binding
Each molecule: 7-deaza-guanosine replaces G
Constant ends, left off below: GGGAGUUCUACAGUCCGACGAUC … UGGAAUUCUCGGGUGUCAAGG
Strand | log2 enrichment
GCAGGAAGUAAAAACAAAUGGAAAUGCUUCUGAUAGUGGCAGGGGUGGGGGUUGCUAAGGAAAGGGUGGGAUGGGAGUGGGUAAAGAGUU | 1.73
ACCAUGCAGGUGGGCAUCUUUGGGAAGUGGGGCAAGGGGGAGAUAGGGAGGGGGGUAACACUUUGGGAACAGGUGGUCCCAGGUCGUUUC | 1.29
UCCUGUGCUACACAUCGUAUGUACCGAAUCGGUUUUUUGGGGUUUUUUGGGUUUUUUGGGAAAGUAUUAUGUUACGCCGUUCGGAUCUGC | -0.226
GCAGGAAGUAAAAACAAAUGGAAAUGCUUCGGAUAGUGGCAGGGGUGGGGGUUGCUAAGGAAAGGGUGGGAUGGGAGUGGGUAAAGAUUU | 1.66
CUCAAGUCCUGUGCUACACAUCGUAUGUACCGAAUCGGGCGGGGCGGGGCGGGGAAAGUAUUAUGUUACGCCGUUCGGAUCUGCACUUCC | -0.183
CCUGUGCUACACAUCGUAUGUACCGAAUCGGGUUUUUUUGGGGUUUUUUUGGUUUUUUUGGAAAGUAUUAUGUUACGCCGUUCGGAUCUG | 0.609
GCAGGAAGUAAAAACAAAUUGAAAUGCUUCGGAUAGUGGCAGGGGUGGGGGUUGCUAAGGAAAGGGUGGGAUGGGAGUGGGUAAAGAGUU | 1.46
UUUGCAGAGCAGUCUCUGAUGAAGAAUGCCAUAAAAACAUCGGAGGAGUCAUGGAUUGAACAGCAGAUGCUAGAAGACAAGAAACGGGCC | -2.17

Block 4
Target: RNA binding protein fox-1 homolog 2, RRM domain, GST-SBP tag (RBFOX2, Homo sapiens, UniProt O43251-10, residues 100-194)
Method: RNA Bind-n-Seq
Form: RNA
Sample: in vitro
Tested at: 365 nM
Notes: natural RNA segment, single round, ends assumed
Baseline: no-protein control
Direction: higher = stronger binding
Constant ends, left off below: GGGAGUUCUACAGUCCGACGAUC … UGGAAUUCUCGGGUGCCAA
Construct (chain): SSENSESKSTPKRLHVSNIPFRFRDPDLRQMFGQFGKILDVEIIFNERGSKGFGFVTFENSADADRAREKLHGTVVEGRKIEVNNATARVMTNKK
Strand | RBNS enrichment (R)
GCUGUUAACAAACAUACAACUUUUUUCUAGGGCUUUAAGGGUGGUCAUUUUUUUCAAGUUCUCUCAAGUGUCCCAAAUCAGGGUAGCAAUCUUGUUGCCACAUGUGCAGC | 0.474
UUUACCCAGAGAAGGUGUUUCUAUACAAUGCCCCUACCUAUUUGAAAUUACAUGCUUGCCCAACACACUGUGAAAUAGUUACCAAAAUUUGUACAAAUGCAGCAUCUUCA | 1.01
AAAACAAAACAUAUUAUCGCAAGGGCUUUCAUUUCAGUAUUGGCUGUGUCACUGGCAGGAUGCAUCACUCUCCAGGGCCUCUUUUUCGGAGCUACUCCCAAUUCCACUCU | 1.21
GUUACUCUAGGUAGUUGGAUCCCUUGAUGGUGGGGACUGUCUUUACUAAAGCUACAUCAGGCCUACUAAGCAGGAGCUGGCCUGUUGCCUACCACCCCUAGUAAGCAGGG | 0.569
ACUUAAACUUUGCAUUGAAAGUUUGGAAAAUUACUUGAAAUAAAAAAAGAUUUUUAUACAAAUACAACCUUUAUAGAGAAAUCUGAUUGCUAAGGAAAUAGAAGGGGAAA | 0.722
UCUAGUGUUCCGUCUUGUUUUGUGUUAAUUACAGCAUUGUGCUAAUGUAAAGACUCUGCCUUUGCGAAGCCAGCUGCAGUGCUGUAGGCCCCCAAGUUCCCUAGCAAGCU | 0.417
AGAUCAAGAUAUUAAGAGGUAUCCUUGAUUUAUUUUCCAGUAUUCAGUAGUAAAAUUUUCCUGUCCACUGUGAAUCAAAGCCUGAGUCACUCUAUUUAACCUUGGACACA | 0.329
CCUGCCAUUGGCGGCUCUGUGUGUUAAUAGGCUAGGGAGAGAGGGGUGCUGUCUGCCACUUGCUCCCUGCCAACUUUCUGGAGAGGUGCCAAACUUGGUGUGGCCAGGAA | 0.263

A few entries again (block 2):
Strand | E-score
CAATAGAA | 0.114
CGTCCCCA | -0.228
CTTGTCGA | 0.0853
ACGTCGAA | -0.0887
